Published values pooled from the literature.
Every numbered part comes from another study and shows a few of its results, in no order. Substitutions count along the parent as printed.

Series 1
Target: RING finger protein unkempt homolog, zinc fingers 1-6, GST-SBP tag (UNK, Homo sapiens, UniProt Q9C0B0, residues 30-357)
Method: RNA Bind-n-Seq
Molecule type: RNA
Matrix: in vitro
Concentration: not given
Setting: RNA with constant flanks, human and mouse sites, ends assumed
Baseline: input RNA pool
Direction: higher = stronger binding
Target sequence (chain): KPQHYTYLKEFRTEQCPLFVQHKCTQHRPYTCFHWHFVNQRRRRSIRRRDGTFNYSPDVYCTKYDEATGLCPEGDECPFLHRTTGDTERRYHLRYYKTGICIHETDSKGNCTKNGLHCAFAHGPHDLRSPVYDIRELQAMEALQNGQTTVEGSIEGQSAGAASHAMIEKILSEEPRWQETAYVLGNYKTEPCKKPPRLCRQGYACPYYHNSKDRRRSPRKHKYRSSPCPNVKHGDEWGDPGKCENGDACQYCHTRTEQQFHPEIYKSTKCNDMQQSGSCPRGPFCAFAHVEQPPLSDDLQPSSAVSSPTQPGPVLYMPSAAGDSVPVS
| Strand | bound/input enrichment [ratio] |
| --- | --- |
| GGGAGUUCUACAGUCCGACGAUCUUCAAUGACUCUCAGCGACAGGCAACAAAAGAUGCUGGAACUAUUGCUGGCCUCAAUGUACUUCGAAUCAUCAAUGAACCAACUGCUGCUGCUAUUGCUUACGGCUUAGAUAAGAAGGUCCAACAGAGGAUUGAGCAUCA | 0.227 |
| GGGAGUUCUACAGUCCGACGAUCAAUGAUGUUGAAGUCAAAUGGAUUGAAUACCAGAAUAUGGUGAACUACCUCAUCCAAUGGAUUAGACACCAUGUGACCACAAUGUCUGAGAGAACAUUUCCUAAUAAUCCUGUAGAACUGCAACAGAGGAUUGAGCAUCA | 0.31 |
| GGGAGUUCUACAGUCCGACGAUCAAUUGUGGCGAAUCAGAAGGAUUGUCAUGGCAUGGUAGAAUGUAUAUUGCUUGUCUCUCUAUAGAAUAAUUUAAAAAUGACCACACCGAACAAGACACCUCCUGGUGCUGAUCCUAAGCACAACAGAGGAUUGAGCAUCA | 5.16 |
| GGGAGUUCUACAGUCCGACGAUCGAGUUCCCAGAAAAAGAAUACGAGGGUGAAAAGGUUUCUGUCACAACAAGAUUACUAAUUUCGCAUUUAAGUGGAAUUCGUCAUUAUGAAAAGGACAUAAAGAAAGUGAAAGAAGAGAAACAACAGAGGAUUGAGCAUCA | 0.303 |
| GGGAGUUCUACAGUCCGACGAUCGCUAUUCGGGAUGCAUGCUUUGGAAUGUCAGCGAUACAGAUGUUCAAUUUGGAUCGGGCUAAUGUUGAAGAAUUCUAUGAAGUCUAUAAAGGUGUAGUGUCUGAGUAUAAUGAUAUGGUGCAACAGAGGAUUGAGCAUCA | 0.836 |
| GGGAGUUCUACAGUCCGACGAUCGGGACCCCGUGUCAUCGCCCAGGCCGAGCACGGAAAUCUACUUUCUUCAAUGUGUUAACCAAUAGUCAGGCUUCAGCAGAAAACUUCCCGUUCUGCACUAUUGAUCCUAAUGAGAGCAGACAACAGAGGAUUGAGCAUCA | 0.269 |
| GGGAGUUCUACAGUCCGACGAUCGGCGCCAAGGGGAUCCGCACGCUGCUCUUUGCUCUGAUGAUGUCCCUUCCUGCGCUGUUUAACAUCGGCCUCCUGCUUUUCCUGGUCAUGUUCAUCUACGCCAUCUUUGGGAUGUCCAACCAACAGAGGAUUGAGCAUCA | 0.0878 |
| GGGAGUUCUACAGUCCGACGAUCGAGGAAAACUGAGCCAUCUGCCUGGAGUCAAGACACUGGAGAUGCUAAUACAAAUGGAAAAGACUGGGGAAGGAGUUGGAGUGACCGUUCAAUAUUUUCUGGCAUUGGUCUCAGAUGAUGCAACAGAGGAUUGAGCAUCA | 0.541 |
| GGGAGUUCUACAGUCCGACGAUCAAUCUCAUGAAAGCAGAACAGAUGCAUCAAAGUUUUGUGGCUGAAACAAGUCAGCGCAUUAGUAAGUUACAGGAAGACACUUCUGCUCACCAGAAUGUUGUUGCUGAAACCUUAAGUGCCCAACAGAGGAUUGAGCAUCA | 0.325 |
| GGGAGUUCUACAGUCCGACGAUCCUCUAUACUUGCUUCCAAUCCAUACAAGCCCAAAAAAGCUCAGAGUAUGAGAGAAUUGAAAUCCCAAUCCAUAUUGUACCUCAUAUCACUAUUGGGAAAGUAUGCCUUGAAUCUGCAGUACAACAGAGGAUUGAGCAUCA | 0.171 |
| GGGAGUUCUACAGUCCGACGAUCCCAGAGUAUGUCCUGGCCUAUAUUGACUAUCUUUCUCACCUCAAUGAGGACAAUAAUACCCGAGUUUUGUUUGAACGAGUUUUAACAUCUGGAAGCCUUCCUCCUGAGAAGUCUGGAGAACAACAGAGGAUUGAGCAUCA | 0.318 |

Series 2
Target: Histone acetyltransferase KAT6A, winged helix 1, GST fusion (KAT6A, Homo sapiens, UniProt Q92794, residues 1-85)
Method: protein binding microarray
Molecule type: double-stranded DNA, one strand shown
Matrix: in vitro
Concentration: not given
Setting: 8-mer, flanks averaged, mean of 2 arrays, mostly near background
Baseline: not given
Direction: higher = stronger binding
Target sequence (chain): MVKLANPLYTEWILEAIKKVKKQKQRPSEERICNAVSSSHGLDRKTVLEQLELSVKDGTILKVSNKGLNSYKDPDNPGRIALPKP
| Strand | E-score |
| --- | --- |
| ACTGTGCG | 0.173 |
| GATTCTAC | 0.0467 |
| AGGGAGAG | -0.152 |
| ATCTAGTA | -0.156 |
| AAGTCCTC | -0.235 |
| TCTCGCCA | -0.0216 |
| GACGGAGC | 0.0753 |
| TAGCTAAA | -0.125 |
| ACGATGCA | -0.118 |
| CCACGCTA | 0.0747 |
| GCAGAGCA | -0.0848 |
| CGGGGTTC | 0.269 |
| AAGGCTCA | -0.233 |
| GAAAAAGC | 0.0852 |
| ACAACGCA | -0.00958 |
| AACTTAAA | -0.194 |
| CTGTTCCC | -0.0557 |
| AGTGAACT | -0.208 |
| GACACGTA | -0.181 |
| GAAGAAGC | -0.021 |
| AAGGGAGG | -0.148 |
| AATCAACT | -0.125 |

Series 3
Target: PABPC1L2, full length, GST fusion (mouse, UniProt A0ABA7IW68)
Method: RNAcompete
Molecule type: RNA
Matrix: in vitro
Concentration: 20 nM
Setting: 7-mer, probes averaged, single round
Baseline: mean of 7-mers
Direction: higher = stronger binding
Construct (chain): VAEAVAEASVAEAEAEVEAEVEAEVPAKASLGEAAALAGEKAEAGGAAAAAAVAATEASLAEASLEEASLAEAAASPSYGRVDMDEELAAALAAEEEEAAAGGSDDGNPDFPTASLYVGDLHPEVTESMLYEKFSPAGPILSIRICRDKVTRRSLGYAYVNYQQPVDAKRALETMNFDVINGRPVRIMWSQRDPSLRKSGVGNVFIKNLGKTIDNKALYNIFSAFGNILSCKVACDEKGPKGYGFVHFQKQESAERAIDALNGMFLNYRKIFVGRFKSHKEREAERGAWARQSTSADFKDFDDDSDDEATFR
| Strand | 7-mer Z-score |
| --- | --- |
| AGGUCCG | -0.162 |
| ACUAUUG | -0.162 |
| GCAACGG | 0.0515 |
| UUAAUGC | -0.0754 |
| GGACAAC | 0.358 |
| GCUUUCA | -0.244 |
| CUUCUAU | -0.456 |
| UUCAAAU | -0.0301 |
| CUCUACG | -0.264 |
| CCAGAGC | -0.175 |
| UCGACUU | -0.267 |
| ACCUCCG | -0.411 |
| UCGCCGA | -0.402 |
| GAGGGCG | 0.258 |
| CGGCUAU | -0.161 |
| GCGAUCC | -0.249 |
| UGCCCGA | -0.251 |
| GGUAUGG | 0.0315 |
| CCCAAAG | -0.0754 |
| GGAAGUC | 0.0424 |
| UGAGAUC | -0.148 |
| CUGCCCC | -0.344 |
| GGCAUUC | -0.0863 |
| UCCUCAU | -0.365 |
| AGAGACU | -0.0464 |

Series 4
Target: Sal-like protein 4, full length isoform B (SALL4, Homo sapiens, UniProt Q9UJQ4-2, residues 1-616)
Method: universal PBM
Molecule type: double-stranded DNA, one strand shown
Matrix: in vitro
Concentration: not given
Setting: 8-mer, flanks averaged, mean of replicates
Direction: higher = stronger binding
Target sequence (chain): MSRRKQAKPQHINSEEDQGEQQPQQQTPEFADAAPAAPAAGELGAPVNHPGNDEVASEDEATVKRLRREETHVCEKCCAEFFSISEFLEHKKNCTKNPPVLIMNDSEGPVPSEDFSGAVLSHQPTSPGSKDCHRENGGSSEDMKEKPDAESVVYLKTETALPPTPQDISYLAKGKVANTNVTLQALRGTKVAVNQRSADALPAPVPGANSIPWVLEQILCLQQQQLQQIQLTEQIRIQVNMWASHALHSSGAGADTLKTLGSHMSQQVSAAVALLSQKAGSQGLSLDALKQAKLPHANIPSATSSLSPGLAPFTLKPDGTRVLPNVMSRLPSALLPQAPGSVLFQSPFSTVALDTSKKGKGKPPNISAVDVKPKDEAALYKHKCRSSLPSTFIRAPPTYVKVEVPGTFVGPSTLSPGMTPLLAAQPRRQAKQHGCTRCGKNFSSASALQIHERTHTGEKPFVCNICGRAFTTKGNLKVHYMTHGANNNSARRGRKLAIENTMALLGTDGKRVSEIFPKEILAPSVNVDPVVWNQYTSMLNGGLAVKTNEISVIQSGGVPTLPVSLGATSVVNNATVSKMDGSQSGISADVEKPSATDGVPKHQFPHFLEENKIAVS
| Strand | E-score |
| --- | --- |
| ATCTCCAT | 0.0749 |
| GTCGGGAA | 0.027 |
| GTGAACGA | 0.0788 |
| ACCGCTAG | -0.177 |
| ACTCCACT | -0.0047 |
| CATTAGTC | 0.015 |
| ACCTTGAT | 0.0622 |
| GGGAGACA | -0.254 |
| GAGACCCC | -0.221 |
| ATCAAGCA | 0.0485 |
| CCCTGCTC | -0.159 |
| TAGATCCA | 0.137 |
| CTCGAAGA | -0.0638 |
| ACGTTGAC | -0.0377 |
| AGTATAAT | 0.366 |
| CCAAACGC | -0.205 |
| AAGCTACC | 0.00354 |

Series 5
Target: Protein C-ets-1 (ETS1, Homo sapiens, UniProt P14921, residues 1-441, full length assumed)
Method: protein-binding microarray
Molecule type: double-stranded DNA, one strand shown
Matrix: in vitro
Concentration: not given
Setting: k-mer, scored over probes, only values ≥0.25
Direction: higher = stronger binding
Construct (chain): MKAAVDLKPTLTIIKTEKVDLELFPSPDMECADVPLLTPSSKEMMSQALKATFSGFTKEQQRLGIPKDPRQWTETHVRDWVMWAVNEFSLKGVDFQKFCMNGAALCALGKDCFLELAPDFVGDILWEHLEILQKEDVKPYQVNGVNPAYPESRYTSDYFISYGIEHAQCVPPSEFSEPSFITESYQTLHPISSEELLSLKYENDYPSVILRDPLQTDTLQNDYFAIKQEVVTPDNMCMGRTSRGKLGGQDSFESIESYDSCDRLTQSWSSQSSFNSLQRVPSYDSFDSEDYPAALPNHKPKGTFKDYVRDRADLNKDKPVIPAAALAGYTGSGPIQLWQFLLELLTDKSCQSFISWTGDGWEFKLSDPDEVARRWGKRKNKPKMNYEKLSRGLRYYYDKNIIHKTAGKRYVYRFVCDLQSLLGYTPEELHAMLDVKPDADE
| Strand | E-score |
| --- | --- |
| CCTCCCCG | 0.319 |
| ACGGAAAA | 0.303 |
| ACAGGATG | 0.473 |
| ATCCGTCC | 0.363 |
| GGATGAAC | 0.291 |
| ACTCCGGA | 0.402 |
| CCGGTATC | 0.37 |
| GAGGAAGC | 0.416 |
| AAGCTTCC | 0.376 |
| CCGGTTCC | 0.347 |
| TATCGGAA | 0.274 |
| AAGACCGG | 0.269 |
| ACATCCGG | 0.498 |
| AGGAAATG | 0.45 |
| GGCGGAAA | 0.472 |
| TACCGGAA | 0.49 |
| ATATCCTG | 0.431 |
| CACCGGGA | 0.313 |
| CGGACGAG | 0.294 |
| AATCCGGT | 0.434 |

Series 6
Target: CCND3, cyclin fold, Cln2 fusion (human)
Method: yeast growth competition, sequencing
Matrix: yeast
Setting: weak parent motif
Baseline: not given
Direction: higher = stronger binding
Starting sequence: CUX1 docking peptide (human); SRIRRELFIEEIQ
| Change | normalised enrichment score |
| --- | --- |
| ARIRRELFIEEIQ [S1A] | 0.221 |
| SRIRRELFIEEAQ [I12A] | -0.0165 |
| SRIRRALFIEEIQ [E6A] | 0.0794 |
| SRIRKELFIEEIQ [R5K] | 0.365 |
| SRIRREAFIEEIQ [L7A] | 0.0646 |
| SRIRRELFIEAIQ [E11A] | 0.211 |
| SRIRRELFIAEIQ [E10A] | 0.156 |
